Measured values pooled from the literature.
A part holds a random share of what one study measured. Changes are numbered by the printed parent chain.

Set 1 — method: RNA Bind-n-Seq; form: RNA; medium: in vitro; concentration: 100 nM; relative to: input RNA pool; direction: higher = stronger binding; measurement: bound/input enrichment
Target: RING finger protein unkempt homolog, zinc fingers 1-6, SBP tag (UNK, Homo sapiens, UniProt Q9C0B0, residues 30-357)
Chain of UniProt Q9C0B0 (30-357, looked up): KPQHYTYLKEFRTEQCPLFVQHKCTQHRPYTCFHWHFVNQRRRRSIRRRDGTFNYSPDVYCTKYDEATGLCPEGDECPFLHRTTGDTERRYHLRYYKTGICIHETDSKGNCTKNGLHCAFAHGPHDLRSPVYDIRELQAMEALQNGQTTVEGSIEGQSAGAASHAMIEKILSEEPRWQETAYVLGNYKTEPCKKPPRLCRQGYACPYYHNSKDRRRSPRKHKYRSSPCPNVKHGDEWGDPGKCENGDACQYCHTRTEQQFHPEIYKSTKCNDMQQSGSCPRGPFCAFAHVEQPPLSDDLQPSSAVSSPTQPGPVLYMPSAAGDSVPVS
Setting: RNA with constant flanks, vertebrate orthologous sites, ends assumed
All sequences stand within: GGGAGUUCUACAGUCCGACGAUC … CAACAGAGGAUUGAGCAUCA
AUCCUACCUGUGCAAAUUUCACAACACUGAAUGCAAAGUAGCAAUUUUCAUAGCCACAGUAAGGUAGCUUUAGGGCUCUGUUGCCAUGGUUUUAUUCAUGUGCAAGUUUUGACAAUGUAU: 0.747 ratio
UACGCCAGAUACUUUUAACUGUUUUGAAGAUACAAAUAAGCUUUGCUUUUUGCAUUGAAAUAGAAUACUUUUAUAUUAUAAGUGCUUCAAAUGUGUGGAGAUGUUAGUUUGCUCUUACAA: 0.435 ratio
UUUCGGUUUUGCACAUGACAGUGUUUGUUUUGAGGAUCUUCUGAGGAAGAAGGGGUGCUAUGGUGGUGGUGCCUGGGUUCCUGGCCUCCAGUGCCCCACCCCCUCACCACCCCACCUGGC: 0.351 ratio
GAAAAACAAACUGUUGGAGCUGGGCGUUCUGUACCAUCCUUUCUUCAUACCAACGGUAUCUAGUUGUAGGGAUUUAAUAUUUUUUAAAGUUUUACAUUGCUGUAUAUUCAGAGAUUUGUU: 0.611 ratio
UAUUUUCUUAUCUUAGGUAUCAUUGCCCAAUGCCCAAGAUCUUUUAUGUUCAGCUGACUGUAGGAAAUAAUGAAUUUUUUGGGGAAGGAAAGACUCGACAAGCUGCUAGACACAAUGCUG: 1.43 ratio
UGUGAGCGUCUACAGACAGCUCACCAUUUUUGUCCUGUAUCUGUAAACACUUUUUGUUCUUAGUCUUUUUCUUGUAAAAUUGAUGUUCUUUAAAAUCGUUAAUGUAACAGGGCUUAUGUU: 0.395 ratio

Set 2 — method: protein binding microarray; form: double-stranded DNA, one strand shown; medium: in vitro; concentration: not given; relative to: not given; direction: higher = stronger binding; measurement: E-score
Target: Histone acetyltransferase KAT6A, winged helix 1, GST fusion (KAT6A, Homo sapiens, UniProt Q92794, residues 1-85)
Setting: 8-mer, flanks averaged, mean of 2 arrays, mostly near background
Construct (chain): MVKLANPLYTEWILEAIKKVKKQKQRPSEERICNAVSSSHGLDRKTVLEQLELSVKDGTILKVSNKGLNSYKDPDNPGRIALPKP
CATAGGTC: -0.132
CCCCGTTC: 0.139
CGTCAGAA: -0.164
CTAAGTGC: -0.205
GCTCTGGA: -0.0888
AGAAATCT: -0.0813
GACAATCC: 0.0179
GATACCTA: -0.0749
ATTAGAAA: -0.166
CGGATCGA: 0.0731
TGACTTAA: -0.129
CTGGAAGC: -0.0517
TCCCAAAA: -0.201
GTCTGAAC: -0.0708
CGAGCGCG: 0.418
CGTACGCC: 0.358

Set 3 — method: DHFR PCA, deep sequencing; medium: yeast; added: (+)-ABA 710 µM; relative to: wild-type fitted maximum; direction: higher = stronger binding; measurement: relative binding score
Target: ABI1, truncated, D143A, DHFR fusion (Arabidopsis thaliana)
Setting: methotrexate growth selection, single substitutions
Parent: PYL1, truncated, DHFR fusion (Arabidopsis thaliana); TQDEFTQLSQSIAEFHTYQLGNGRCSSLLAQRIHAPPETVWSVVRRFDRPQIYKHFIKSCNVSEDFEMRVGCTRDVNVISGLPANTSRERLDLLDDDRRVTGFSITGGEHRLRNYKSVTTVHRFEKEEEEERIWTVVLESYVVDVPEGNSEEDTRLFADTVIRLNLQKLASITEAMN
Y115F: 103%
E129N: 105%
P50W: -16%
R132L: 108%
E89K: -20%
A170R: 103%
N165H: 64.9%
G102H: 9.06%
T73A: 89.8%
N22F: 98.1%
S42H: 97.4%
V78G: 9.15%
V143G: 23.7%
V118K: 84.7%
V143T: 96.8%
A158F: 56.3%
T6K: 112%

Set 4 — method: RNA Bind-n-Seq; form: RNA; medium: in vitro; concentration: 365 nM; relative to: no-protein control; direction: higher = stronger binding; measurement: RBNS enrichment (R)
Target: RNA binding protein fox-1 homolog 2, RRM domain, GST-SBP tag (RBFOX2, Homo sapiens, UniProt O43251-10, residues 100-194)
Setting: natural RNA segment, single round, ends assumed
All sequences stand within: GGGAGUUCUACAGUCCGACGAUC … UGGAAUUCUCGGGUGCCAA
Construct (chain): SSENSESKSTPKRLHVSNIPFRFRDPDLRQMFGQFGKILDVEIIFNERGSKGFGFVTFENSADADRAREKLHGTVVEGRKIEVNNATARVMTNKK
UCCCUGAGUUCUGCUCUGACAUAAGGAAGUCCUCGGUGGCUGGUGCAGCGCGGCUGUGCUGUGCUGGGGAGGCAGCCGUUCCUUCGGGGGUCCUUGGGCCUGCAGUCCCC: 0.271
UGUUUCCACCAAUAGUGCCAAGAAGACACUGCCUGAUUCUUCCCCGGGAGGAGUGACUCCUCUGAAGAAGACAUGACUCAUGUUCAGUUGAGACCCCAGACUCUAGCCAC: 0.327
UUGGGGUACACCUUUGGAUGCUAUGGAAAUACGCAGUUUGGUUUCAGAAAAGAUUUAUUAGAAAACCCUCACCCCAACCUGGUGAGGCAGUCACUCAUGACUGGAGGAAA: 0.411
CAUCCCGGUCUCCAGAGACCCAGCUUCUGAGAGACAGGGUGUGGGCAUCUCCAUGCCCCUAUAAAGCGUGCCUGGGGCUUGUCUGGGGCUGGGGAGGAAUAAACCAUGUA: 0.902
GGGAAGCUUGGGAGAGCAAUAGUAUGGUGAGCCCCUUAGAGAUGAGCGCCUACUCCUUCUUGGCGAAUGCUGCCUUCAGAUGCUUACCAAGUGGUCACUGCAUCUAGUAA: 0.678
AAGCCUCAGGUGUCAGAGAGUAAGCUAUAGUGAAAGAUGCCUGGCUCGGCCUGGGGCUAAAAGGACUUUGCACUGCCAUUUCUGAGGCAGGAGUCACAGUUGAGAGCUGG: 0.89
CAUCUGCUGGUCAUUUCGCCCUGACAGUCCCAACCAGAACCCCUGGGACUUGAAUCCAGAGACGUCCUCCAGGAACCCCUCAACGAAGCUGUGAAUGAAGAGGUUUCCUC: 0.559
UGAUGCCUGGUGGCUUACCGGACUUCUCAGUCAAUUCUGAAAGGUAUAUUUUGGGCACACAGUGAAAAGUGAGCCAUAGAUGGAGCUUCUUGCUGAUCACAUUGACACUG: 0.534
GGAAAGAAAUCGGGAUGCCGCGGAGCACAGAGUGAUUUGGAACUCCAUUCCACCUGACCCUGUGUGUACAAUCCAGGAAAAAAACAAACCCCACUCAGAAACAGAGAAAA: 0.279
UGAAACUAUUCUUUGGCAUUGGUGUCCAUGGCCCUAUACCGCCAUCUUACACGAAAGCCACAGAGUUGAAAGCCACAGAGUUGAAAGCCACAGAGUUAAGUGACCUCAGG: 0.334
AAUGGAGAUUUAAGCACAAUCCUAGCAAGUAAGUUUUAAGAAUACUGAAUAUUAUACAUUAUUGUAACAUGAACCUAAAAUUAAUUUAACAGGGCCCAAAUUCAUAGGAA: 0.471
UUAAUUAUUAAAGUGCUCCAAAAUGAAAGUUAAGUUUAAUGUCUGUCCUUUCCUUCUAAUUUUAGAAGUUCUGUUGAGAAACACAAACUGCAAAUUUAAGUCAGCAUUUU: 0.683

Set 5 — method: universal PBM; form: double-stranded DNA, one strand shown; medium: in vitro; concentration: not given; direction: higher = stronger binding; measurement: E-score
Target: Sal-like protein 4, full length isoform B (SALL4, Homo sapiens, UniProt Q9UJQ4-2, residues 1-616)
Setting: 8-mer, flanks averaged, mean of replicates
ACTAGGTA: 0.128
GACCTTCA: -0.0874
AATCATCG: 0.0968
TGGTGGAA: -0.0462
CTCTATAA: 0.31
GCGTCCCA: -0.342
CGTGCAAA: 0.0921
AAAGATTC: 0.157
ATTTGACG: 0.156
GTAAGCAA: 0.157
AAAAATGC: 0.121
ACCGACAG: -0.221
CAGTTTAC: 0.0278
GTGTCCTA: -0.0727
AAGTGTGG: 0.0226
ACGATATC: 0.134

Set 6 — method: protein-binding microarray; form: double-stranded DNA, one strand shown; medium: in vitro; concentration: 940 nM top; setting: 60-bp whole probe; added: salmon DNA 0.4 mg/ml; relative to: random background probes; direction: higher = stronger binding; measurement: fitted relative affinity; all sequences stand within: GCCTAGCAC … GTCTTGATTCGCTTGACGCTGCTG
Target: Interferon regulatory factor 5, full length, phosphomimetic (IRF5, Homo sapiens, UniProt Q13568-2, residues 1-514, S451D/S453D/S456D/S462D)
TTGTATTTGTCCCTATTTAAGTGCTAG: 1.65 z-score
TCACCTCTTTCTCTGCTACTGTGCTAG: 1.86 z-score
TGGCTTTCCTTTATGTCCTGGTGCTAG: 0.292 z-score
CGCCCACTCATGCCTCTTAAGGTGCTA: 0.698 z-score
GACGGTTTCAGTTCCGGGACGTGCTAG: 5.78 z-score
CCCTAATTCTGATTGGATAAGTGCTAG: 0.28 z-score
TCAGCTTTGCCTTCAGCACTGTGCTAG: 0.00879 z-score
GACGGACTGCTTCTCCTGATGTGCTAG: -0.508 z-score

Set 7 — method: competition protein-binding microarray; form: double-stranded DNA, one strand shown; medium: in vitro; concentration: 2 µM; added: Pho4 competitor, 0.05 µM; direction: higher = stronger binding; measurement: fluorescence intensity; all sequences stand within: … GTCTTGATTCGCTTGACGCTGCTG
Target: Centromere-binding protein 1, full length, His-tagged (CBF1, Saccharomyces cerevisiae, UniProt P17106, residues 1-351)
Chain of UniProt P17106 (whole entry, looked up): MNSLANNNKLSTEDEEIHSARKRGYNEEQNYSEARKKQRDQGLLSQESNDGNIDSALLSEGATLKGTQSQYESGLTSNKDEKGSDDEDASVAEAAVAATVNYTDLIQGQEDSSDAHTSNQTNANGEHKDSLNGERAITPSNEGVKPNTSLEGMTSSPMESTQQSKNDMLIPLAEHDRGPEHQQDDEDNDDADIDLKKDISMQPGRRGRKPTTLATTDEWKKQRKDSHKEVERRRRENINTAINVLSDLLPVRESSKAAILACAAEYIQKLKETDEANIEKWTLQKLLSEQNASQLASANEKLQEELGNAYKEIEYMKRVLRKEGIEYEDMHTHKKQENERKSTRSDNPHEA
Setting: whole 60-bp probe, lowest competitor level
CAACGGCGCCTCGGCCACGTTGAGTGAACCTTTGGC: 77.3 a.u.
CATACCCAACCTTGATAGGTGGGTGAAGATATTTGT: 56.6 a.u.
TCTCTTTTGCATCGAAACGTGGGTAGATCGTACCGG: 89.6 a.u.
TGCGCAACAACTTGACGGGTGGGTGTATGTCTAGAA: 72.8 a.u.
TTGAACCTTGGTCTTCACGTGGTGAAGTATTGGTAC: 957 a.u.
AAGAGCAAGTTGTTACACGTGTGAATCTGGCACATT: 756 a.u.
CATACCCAACCTTGGATGGTGGGTGAAGATATTTGT: 63.6 a.u.
AACATAAGACTAGCTCGCGTGGCCGAATGGCAACGC: 58.3 a.u.
CCACAATCTGATGCTTTCGTGATGGATCCTCCAATT: 60 a.u.
ACAAAATTCCCCCATCACGTGAAGCAGGAGGCGCAA: 3670 a.u.
CCATTCCAACCAATGGATGTGACGCTCCAAGAGAAA: 51.4 a.u.
CTAACGAAGGTTTTTCACGTGCCGTACAAGCCAAGT: 1130 a.u.
CTAACAACAGAGACCCACATGGACGTTGGCGCAATT: 70.2 a.u.
TGCGCAACAACTTGCGGCGTGGGTGTATGTCTAGAA: 64.6 a.u.
CGTCCTAGTGATTTTCACGTGCGATCCATGAGGAAG: 778 a.u.
ATTGGGCCATCAGCAGACGTGGCCTTGGCTGGACGC: 52.5 a.u.
